Measurements of several laboratories.
Each numbered part is a random draw from the data of one study; scales do not carry over between parts. Positions count from the first letter of the parent shown.

Series 1
Target: UBE2T UBC core domain (UniProt Q9NPD8)
Method: yeast two-hybrid
Sample: yeast
Setting: mostly zero background
Relative to: not given
Direction: higher = stronger interaction
B1: NSMCE1 RING domain (UniProt Q8WV22); chain RETYPDAVKICNICHSLLIQGQSCETCGIRMHLPCVAKYFQSNAEPRCPHCNDYWPHEIPKV
B2: RNF150 RING domain (UniProt Q9ULK6); chain DKETESDFDNCAVCIEGYKPNDVVRILPCRHLFHKSCVDPWLLDHRTCPMCKMNILKALGIP
B3: RNF149 RING domain (UniProt Q8NC42); chain EKGIDVDAENCAVCIENFKVKDIIRILPCKHIFHRICIDPWLLDHRTCPMCKLDVIKALGYW
B4: TRIM52 RING domain (UniProt Q96A61); chain PMQTLQEEAVCAICLDYFKDPVSISCGHNFCRGCVTQLWSKEDEEDQNEEEDEWEEEEDEEAV
Residues (chain): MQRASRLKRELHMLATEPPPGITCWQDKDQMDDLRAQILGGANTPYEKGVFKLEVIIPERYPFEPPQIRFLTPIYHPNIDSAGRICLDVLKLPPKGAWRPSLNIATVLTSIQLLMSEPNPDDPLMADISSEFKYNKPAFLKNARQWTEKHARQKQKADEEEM
| Molecule | lacZ reporter activity |
| --- | --- |
| B1 (NSMCE1 RING domain) | 0 |
| SYEDKSNDFVCPICFDMIEEAYMTKCGHSFCYKCIHQSLEDNNRCPKCNYVVDNIDHLY (COP1 RING domain (UniProt Q8NHY2)) | 0 |
| B2 (RNF150 RING domain) | 0 |
| B3 (RNF149 RING domain) | 0 |
| KRQCSDVDDICSICQAEFQKPILLICQHIFCEECMTLWFNREKTCPLCRTVISDHINKW (RNFT1 RING domain (UniProt Q5M7Z0)) | 0 |
| MANWVFCNRCFQPPHRTSCFSLTNCGHVYCDACLGKGKKNECLICKAPCRTVLLSK (RNF212 RING domain (UniProt Q495C1)) | 0 |
| B4 (TRIM52 RING domain) | 0 |
| QLQDEEDDSLCRICMDAVIDCVLLECGHMVTCTKCGKRMSECPICRQYVVRAVHVF (RNF34 RING domain (UniProt Q969K3)) | 0 |
| KIKDLNEHIVCCLCAGYFVDATTITECLHTFCKSCIVKYLQTSKYCPMCNIKIHETQPLL (PCGF1 RING domain (UniProt Q9BSM1)) | 0 |

Series 2
Target: RNA binding protein fox-1 homolog 2, RRM domain, GST-SBP tag (RBFOX2, Homo sapiens, UniProt O43251-10, residues 100-194)
Method: RNA Bind-n-Seq
Form: RNA
Sample: in vitro
Tested at: 365 nM
Setting: natural RNA segment, single round, ends assumed
Relative to: no-protein control
Direction: higher = stronger binding
Residues (chain): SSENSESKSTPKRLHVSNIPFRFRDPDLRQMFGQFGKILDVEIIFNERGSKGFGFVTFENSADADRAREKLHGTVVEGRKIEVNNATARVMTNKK
| Oligonucleotide | RBNS enrichment (R) |
| --- | --- |
| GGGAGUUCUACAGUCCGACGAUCACCUCAGGAUUCGAAGUGUGCAACAGACGGAGUGCGCUUGCUGUUCAGGGCGGCCCCGUGCAGGAGCACCAGCUCACCCUCAGGCAUCUCGGACUGGAGGGCCAGCAGAAUGGAAUUCUCGGGUGCCAA | 0.622 |
| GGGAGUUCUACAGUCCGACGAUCUUCUAGAGGCUCUGGGAGCAAAUUACAUUCAUCACAUUACCUCUGCUCUCUCAAGAUUAAAGUCUUUCAGCAACAUUCUUUAUUGUCAUCAUAAGGAAAAACUUUUAUCGUGGAAUUCUCGGGUGCCAA | 0.456 |
| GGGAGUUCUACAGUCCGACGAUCUGAAAGUGUAAUAAUAAAAUGUCUAUGUAUCUUUAGUUACAUUCAAAUUUGUAACUUUAUAAACAUGUUUUAUGCUUGAGGAAAUUUUUAAGGUGGUAGUAUAAAUGGAAUGGAAUUCUCGGGUGCCAA | 1.46 |
| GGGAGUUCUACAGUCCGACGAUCUCAGUAAACUAGAAGUCCAGGGUUGCUUGGUUUACUGGUUUAUAAGAAAUCUGAAAGCACCUCUGACAUUCCUUUUAUUAACUCACCUCUCAGUUGAAAGAUUUCUUCUUUGGAAUUCUCGGGUGCCAA | 0.354 |
| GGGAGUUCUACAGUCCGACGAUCCUCUUCUAGACCCACAGCUUCUUGAUCCACUUGUGGUUUCCAUGUCACUAAUGUAGAAACAUCAUGGACUAGCAUCCCCAGUCUUUGCCCUCAUCCAGCUGUCGCAGCGCUGGAAUUCUCGGGUGCCAA | 0.811 |
| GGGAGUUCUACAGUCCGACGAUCGUAUUAUUUUUACUGUUAAAAAAUUUUUUAAAAAUGUGAAAUGUAAUGUUUUUACAGCAACAAUAUGAAAUAUAUUUUAUAAGGAAUAAAAUGGUACCUUGUCUGAUUUAUGGAAUUCUCGGGUGCCAA | 0.596 |
| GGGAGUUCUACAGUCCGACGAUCCUUGGAAGGUUUCCCUCCGGGGAAUGCCUCCCUGGAAUGUUCCAGAGACGGAACAUUCUCUAGAGACAACAGUCUGUGCUGCAGAUUGGUUGGAUCACAGAAUGUGUGUCUGGAAUUCUCGGGUGCCAA | 0.184 |
| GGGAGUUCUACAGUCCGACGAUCUUCAGAGGGCCACUGGGUUAGGACCUGAGGACCUCACUUGGCCCUGCAAGGCCCGCUUUUCAGGGACCAGUCCACCACCAUCUCCUCCACGUUGAGUGAAGCUCAUCCCAUGGAAUUCUCGGGUGCCAA | 0.219 |
| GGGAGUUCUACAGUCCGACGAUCUUGACACACACAUUCACAUAUAAAUUGUUAAAAACUGAAGGCAGAAUGGAACUAAUAUAUGUAACAGAGAAAAACAAUAAAUUUUAUGAACUUGUUUUAUAUUUGCAUAUUGGAAUUCUCGGGUGCCAA | 0.547 |
| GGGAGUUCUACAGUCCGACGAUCUGACAUAAACCAUUCAUUGCUACCUUGCUUAUUGUGUUUUUACGCGGUUUUAUACUUUUUUUAUGAGUUAUGAUAGCAGCAAUUACGUUGUUUGUAUUUUGCUUAACUAAUGGAAUUCUCGGGUGCCAA | 0.409 |
| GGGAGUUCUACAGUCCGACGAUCUAACUGGUAAGGCUUAUUGUACAGUAUAUUGUCAGUAUUCUUCUGGUUCAGCAUACCUUAUAGUUCGUAUAUAACCUGUAUUAAUUGUAUAGAUUGUGCAUUUAAAGCUGUGGAAUUCUCGGGUGCCAA | 0.419 |
| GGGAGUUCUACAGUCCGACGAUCCAUGGCUUCACCUGUCCCCGAAACUACCAGCCCUACACCAUUCCUUCUGCCCUGCUUUUGCUAGGUCACAGAGGAUCUGCUUGGUCUUGAUAAGCUAUGUUGUUGCACUUUGGAAUUCUCGGGUGCCAA | 0.434 |

Series 3
Target: Histone acetyltransferase KAT6A, winged helix 2, GST fusion (KAT6A, Homo sapiens, UniProt Q92794, residues 85-181)
Method: protein binding microarray
Form: double-stranded DNA, one strand shown
Sample: in vitro
Tested at: not given
Setting: 8-mer, flanks averaged, mean of 2 arrays, mostly near background
Relative to: not given
Direction: higher = stronger binding
Construct (chain): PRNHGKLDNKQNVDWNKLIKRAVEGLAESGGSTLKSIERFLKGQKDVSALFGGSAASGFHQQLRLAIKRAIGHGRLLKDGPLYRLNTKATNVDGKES
| Oligonucleotide | E-score |
| --- | --- |
| CCCTCAAA | 0.0624 |
| AGTCCGAC | -0.195 |
| ATTATGTA | 0.0261 |
| CTACTCTA | -0.103 |
| GTTTTCAA | 0.0483 |
| CACTTGTA | -0.197 |
| CGCTTTAG | 0.17 |
| CACCGCGG | 0.211 |
| CAGCAAAA | 0.0483 |
| CAGAATTC | 0.139 |
| ATACGACA | -0.0396 |
| CCTAAAGG | 0.121 |
| ACTGACAG | -0.0656 |
| CAGGTCAC | -0.0466 |
| AATTCGAG | 0.0227 |
| AAGTAACC | -0.201 |
| ATCATGCG | 0.0928 |
| AGGCGAAA | 0.00938 |
| AGGGAAGA | 0.0148 |
| ATTTCCGA | 0.0635 |

Series 4
Target: Sal-like protein 4, full length isoform B (SALL4, Homo sapiens, UniProt Q9UJQ4-2, residues 1-616)
Method: universal PBM
Form: double-stranded DNA, one strand shown
Sample: in vitro
Tested at: not given
Setting: 8-mer, flanks averaged, mean of replicates
Direction: higher = stronger binding
| Oligonucleotide | E-score |
| --- | --- |
| ACTAACGG | 0.0531 |
| TACTCCGA | -0.141 |
| ACAGGGTG | -0.111 |
| GACGGATA | -0.0913 |
| ACATTGGT | 0.0238 |
| GGGAGCCA | -0.303 |
| CATTGATA | 0.114 |
| ACCAGTTC | -0.158 |
| AGACTAGG | -0.0462 |
| CAGGGTGC | -0.345 |
| CTGATCCC | -0.156 |
| AGCGAGCC | -0.241 |
| CTAAGAAA | 0.0427 |
| ATCCATGC | -0.00157 |
| CAAATTGC | 0.142 |
| ACACCACG | -0.103 |
| ATCGCCTC | 0.109 |
| AGGCGCAC | -0.269 |
| GATATGGC | -0.0955 |
| CATGAGCG | -0.186 |
| CCTATTTA | 0.197 |
| AACAATAA | 0.403 |
| TGTGTCAA | 0.241 |
| CAAAATAG | 0.072 |
| CTGGGCTA | -0.286 |

Series 5
Target: NFE2, bZIP domain (human)
Method: DHFR protein complementation
Sample: yeast
Setting: single substitutions, most at no-binding floor
Relative to: wild-type JUN-FOS pair
Direction: higher = stronger binding
Parent: JUN, bZIP domain (human); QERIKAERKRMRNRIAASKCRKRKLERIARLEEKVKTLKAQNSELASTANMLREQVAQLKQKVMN; partner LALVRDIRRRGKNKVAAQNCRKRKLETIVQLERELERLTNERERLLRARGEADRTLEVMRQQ
| Variant | binding fitness [natural log] |
| --- | --- |
| L38K | -1.27 |
| S43R | -1.33 |
| Q58P | -1.48 |
| V35W | -1.51 |
| L45D | -1.48 |
| K34C | -1.45 |
| S47C | -1.43 |
| A57K | -1.49 |
| L38A | -1.32 |
| S47W | -1.47 |
| A29K | -1.48 |
| A49F | -1.47 |
| T48D | -1.5 |
| S43C | -1.36 |

Series 6
Target: CCNF, cyclin fold, Cln2 fusion (human)
Method: yeast growth competition, sequencing
Sample: yeast
Setting: strong parent motif
Relative to: not given
Direction: higher = stronger binding
Parent: HASPIN docking peptide (human); ASLRSVLFGLMNS
| Variant | normalised enrichment score |
| --- | --- |
| S5A | 1.94 |
| L7A | 0.812 |
| V6A | 1.49 |
| M11A | 1.7 |
| S13A | 1.16 |
| L3A | 1.19 |
